Measurements of several laboratories.
Compare with care: the assays were run in different laboratories. Several values in a cell are separate wells, animals, samples, runs or records. ± gives the spread as reported.

| SMILES | cell line | test | setting | how to read | measurement | value |
| --- | --- | --- | --- | --- | --- | --- |
| COc1ccc(-n2nc(C(C)=O)s/c2=N\N=C(/C)c2ccc(NC(=O)c3ccc(C)cc3)cc2)cc1 | MCF7 |  | 1.25 µM |  | viability | 4.79% |
| CC(C)NCC(O)c1ccc(O)c(O)c1 (centres unmarked) | mouse ventricular cardiomyocytes |  | dose not given, 0.255 s |  | sarcomere length | 1.8 µm |
| Cn1cc(-c2ccc(-c3cncc(Cl)c3N3CCC4(CCNC4=O)CC3)cc2)cn1 | COLO 205 | gene expression, microarray, item: LAMA3 mRNA | concentration not given, 2 h | relative to: untreated cells | log2 fold change | 1.82 |
| NC(=O)NOCCCCCCCCCCCCCCCCCCCC[P+](c1ccccc1)(c1ccccc1)c1ccccc1.O=C([O-])C(F)(F)F | HCT-116 | cell growth, live-cell imaging | 0.03 µM, control at 90% confluence |  | cell confluence | 92.7 ± 1.63% |
| Cc1nn(-c2ccccc2C(C)C)c(C)c1C(=O)Nc1ccc2ccccc2n1 | Wnt-HEK293 | Wnt/β-catenin signalling, inhibitor, luciferase reporter | 1 µM |  | inhibition | > 70% |
| CC/C(=N\NC(=O)NCc1cccc(O)c1)c1ccc(O)c(C)c1O | SK-OV-3 | Western blot, item: phospho-YAP | 10 µM, 1 h, 2D culture, unit not given | relative to: total YAP | protein level | 0.38 ± 0.26 |
| C[C@H]1[C@@H](O)O[C@@H]2O[C@@]3(C)CC[C@H]4[C@H](C)CC[C@@H]1[C@@]24OO3 | THP-1 | annexin V/PI flow cytometry, item: annexin V+/PI+ | 3.2 µM, 24 h |  | late apoptotic cells | 1.6% |
| CN1CCN(c2ccc3[nH]c(-c4ccc5[nH]c(-c6ccc(C(F)(F)F)cc6)nc5c4)nc3c2)CC1 | SF-295 | SRB | 10 µM, 48 h |  | growth percent | 50.9% |
| C[C@H](Nc1ccc2c(c1)OCCn1cc(N3C(=O)OC[C@H]3C(F)F)nc1-2)C(N)=O | MFE-280 | cell growth, CellTiter-Glo | 120 h |  | Hill coefficient GR curve | 0.736 |
| Cc1cccc(-c2[nH]c(CNc3ccccc3F)nc2-c2ccc3ncnn3c2)n1 | MM1.S | XTT | 0.6 µM | relative to: untreated | viability | 82% |
| C=Cc1c(C)c2cc3nc(c(CC(=O)O)c4[nH]c(cc5nc(cc1[nH]2)C(C)=C5CC)c(C)c4C(=O)O)[C@@H](CCC(=O)O)[C@@H]3C | 4T1 | wound healing | concentration not given, laser irradiation |  | cell motility | 46.3% and 44.6% and 39.1% |
| OCc1coc(-c2nn(Cc3ccccc3)c3ccccc23)n1 | RBE | cell viability | 46 µM |  | inhibition | < 50% |
| Nc1cccc2c1C(=O)N(C1CCC(=O)NC1=O)C2=O (centres unmarked) | bone marrow CD138+ myeloma cells | XTT | 1.8 µM, mean of three patients |  | viability | 7% |
| O=C(c1ccc2c(=O)n3c(nc2c1)CCCCC3)N1CCN(Cc2ccccc2)CC1 | BV-2 | item: caspase-8 | 30 nM, added: high glucose | relative to: high glucose | protein level | decreased |
| CCn1cc(-c2cc(Cn3ccnc3)cc3c2CCN([C@H](c2cc(OC)ccn2)C2CC2)C3=O)c(C(F)(F)F)n1 | HEC-1-A | cell growth, inhibitor | 120 h |  | EC50 | > 30 µM |
| CCCCc1oc2ccc(NS(C)(=O)=O)cc2c1C(=O)c1ccc(OCCCN(CCCC)CCCC)cc1 | human embryonic stem cell aggregates | mRNA level, microarray, item: PDGFRA | 0.5 µM, 120 h | relative to: untreated, down-regulated | fold change | 4.9 fold |
| OCc1ccc(-c2nn(Cc3cncnc3)c3ccccc23)o1 | RBE | cell viability, CellTiter-Glo |  |  | IC50 | 1.03 µM |
| COc1nc(NCc2cn(-c3ccc(C(=O)Nc4ccccc4)cc3)nn2)nc(OC)n1 | HCT-116 | flow cytometry | IC50, 24 h |  | cell cycle phase %G0-G1 | 57.2% |
| NC(=O)NOCCCCCCCCCC[P+](c1ccccc1)(c1ccccc1)c1ccccc1.O=C([O-])C(F)(F)F | HCT-116 | cell growth, live-cell imaging | 3 µM, control at 90% confluence |  | cell confluence | 64.3% |
| CCn1c2ccc(CNCCOCCOCCOCCC(=O)NCCOc3ccc(CCc4nc5cc(-c6c(C)noc6C)ccc5n4CCN4CCOCC4)cc3F)cc2c2ccc(-c3cc(C)cs3)cc21 | NCI-H1299 expressing p53 Y220C | RT-qPCR | 3 µM, 24 h | relative to: DMSO | DUSP5 mRNA level | ~3 fold |
| Cc1cnc(NC2CCOCC2)nc1-n1cnc(C(=O)NC(CN)c2cc(F)cc(Cl)c2)c1 (centres unmarked) | Rec1 | flow cytometry | 1 µM, 72 h |  | S phase cells | 15.1% |

| SMILES | cell line | test | setting | how to read | measurement | value |
| --- | --- | --- | --- | --- | --- | --- |
| C=CCn1c(=O)c2cnc(Nc3ccc(N4CCN(C)CC4)cc3)nc2n1-c1ccc2c(n1)[C@@](O)(CC)CC2 | NCI-H1048 | flow cytometry | concentration not given |  | EdU-negative S phase cells | 24.6% |
| Nc1ncnc2c1ncn2[C@@H]1O[C@H](CO)[C@@H](O)[C@H]1O | activated human T cells |  | 3.16 µM, 72 h | higher = more viable cells | viability | 82.4 a.u. and 80.5 a.u. and 86.3 a.u. |
| CCCCN1C[C@H](O)[C@@H](O)[C@@H](O)[C@H]1CO | sample F patient fibroblasts | Gb3 level lowering, LC-MS/MS, item: Gb3 d18:1/24:0 | 216 h |  | IC50 | 9.6 µM |
| CN(C)CC(=O)N1CCC(c2ccc(NC(=O)c3nc(C#N)c[nH]3)c(C3=CCCCC3)c2)CC1 | hiPSC-derived cardiomyocytes (iCell) | impedance (xCELLigence Cardio) | concentration not given, 2 h | relative to: control | beat rate | 90% |
| NC(=O)NOCCCCCCCCCCCC[P+](c1ccccc1)(c1ccccc1)c1ccccc1.O=C([O-])C(F)(F)F | HCT-116 | cell growth, live-cell imaging | 1 µM, control at 90% confluence |  | cell confluence | 90.8 ± 3.61% |
| Cc1[nH]nc2ccc(-c3cncc(OC[C@@H](N)Cc4ccccc4)c3)cc12 | hiPSC-derived cardiomyocytes (iCell) | impedance | concentration not given, 24 h | relative to: control | cell index | 95.2% |
| O=C(/C=C/C=C/C=C/C1CCCCC1)NC1=C[C@@](O)(/C=C/C=C/C=C/C(=O)NC2=C(O)CCC2=O)[C@@H]2O[C@@H]2C1=O | IPC-298 | cell growth, CellTiter-Glo | 78 h |  | GI50 | 18 µM |
| CNCc1ccc(-c2nn(Cc3ccccc3)c3ccccc23)o1 | RBE | cell viability, CellTiter-Glo |  |  | IC50 | 21.2 µM |
| CCn1cc(-c2cc(Cn3ccoc3=N)cc3c2CCN([C@@H](C)c2cc(OC)ccn2)C3=O)c(C(F)(F)F)n1 | Raji | cell growth, inhibitor | 120 h |  | EC50 | 11.7 µM |
| Cn1cc(Nc2nccc(-c3ccc4c(c3)CN(C3COC3)CC[C@H]4NC(=O)c3cn(C(C)(C)C)nn3)n2)cn1 | human B cells |  | 100 nM, 64 h, stimulation-upregulated genes, added: CpG ODN2006 |  | number of upregulated genes | 0 |
| C=Cc1c2[n-]c(c1C)/C=c1\[n-]/c(c(C)c1C=C)=C\c1[n-]c(c(CCC(=O)O)c1C)/C=c1\[n-]c(c(C)c1CCC(=O)O)=C2.[Sn+4] | SH-SY5Y | RNA-seq, item: CMKLR1 mRNA | 5 µM, 5 h | relative to: untreated cells | fold change | 4.52 |
| CCN(Cc1cc(F)cc(F)c1)c1ccc(CO)c(Cl)c1 | RBE | cell viability, CellTiter-Glo |  |  | IC50 | 0.11 µM |
| C[C@H](CCC(=O)NCCS(=O)(=O)O)[C@H]1CC[C@H]2[C@@H]3CC[C@@H]4C[C@H](O)CC[C@]4(C)[C@H]3CC[C@]12C | PCK rat cholangiocyte cysts |  | 20 µM | relative to: untreated | PCNA-positive nuclei | 81% |
| O=C(Nc1nnc2n3c(=S)[nH][nH]c3nc(-c3ccc(Cl)cc3)c1-2)c1ccccc1 | SF-295 | SRB | 10 µM, NCI60 single-dose screen | relative to: untreated | cell growth | 79.2% |
| Cn1c(Nc2nc3ccc(C(F)(F)F)cc3s2)nc2cc(C(=O)NCCOCCO)ccc21 | SH-SY5Y | RNA-seq, item: PLK2 mRNA | 5 µM, 5 h | relative to: untreated cells | fold change | 2.12 |
| NC(=O)NOCCCCCCCCCCCCCCCC[P+](c1ccccc1)(c1ccccc1)c1ccccc1.O=C([O-])C(F)(F)F | HCT-116 | cell growth, live-cell imaging | 0.5 µM, control at 90% confluence |  | cell confluence | 48.4% |
| COc1cnc2cccc(N3CCc4c(cc(Cn5ccnc5C)cc4-c4cn(C)nc4C(F)(F)F)C3=O)c2c1 | TEN | cell growth | 120 h |  | EC50 | 1.05 µM |
| COc1c(Cl)cc2c([nH]c3cnccc32)c1NC(=O)c1cccnc1C | hiPSC-derived cardiomyocytes (iCell) | impedance (xCELLigence Cardio) | concentration not given, 2 h | relative to: control | beat amplitude | 98.6% |
| OCc1ccc(-c2nn(Cc3ccccc3)c3ccccc23)o1 | RBE | cell viability, CellTiter-Glo |  |  | IC50 | 0.69 µM |
| CCN(CC)CCCC(C)Nc1ccnc2cc(Cl)ccc12 (centres unmarked) | hiPSC-derived cardiomyocytes | If current, perforated patch clamp | 5 µM | relative to: initial current | fractional funny current | 0.99 and 0.96 |
